Assay results from different studies.
Compare with care: the assays were run in different laboratories.
DRD2: D(2) dopamine receptor (DRD2, Homo sapiens, UniProt P14416)
Chain of UniProt P14416 (whole entry, looked up): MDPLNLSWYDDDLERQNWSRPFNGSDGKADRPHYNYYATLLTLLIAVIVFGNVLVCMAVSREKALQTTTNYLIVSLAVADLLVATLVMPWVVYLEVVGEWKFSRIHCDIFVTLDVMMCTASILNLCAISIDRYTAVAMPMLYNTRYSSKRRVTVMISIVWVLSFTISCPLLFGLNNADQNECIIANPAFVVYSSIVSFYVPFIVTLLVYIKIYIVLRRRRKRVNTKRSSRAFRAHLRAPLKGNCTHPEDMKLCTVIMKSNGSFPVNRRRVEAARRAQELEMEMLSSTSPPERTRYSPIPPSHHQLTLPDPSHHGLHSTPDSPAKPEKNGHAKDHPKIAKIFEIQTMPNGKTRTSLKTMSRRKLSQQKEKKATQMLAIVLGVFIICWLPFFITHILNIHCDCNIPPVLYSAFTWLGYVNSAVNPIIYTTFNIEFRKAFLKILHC

CN[C@@H]1[C@H](O)[C@H](NC)[C@H]2O[C@]3(O)[C@H](O[C@@H]2[C@H]1O)O[C@H](C)C[C@H]3NC(=O)Cc1cc(Cl)ccn1  inhibition (DRD2; 10 µM): -1%
C/C(=N\OCCCN1CCCCC1)c1ccc(C(F)(F)F)cc1  activation (DRD2; agonist, cAMP; 10 µM): -11.5%
N[C@H](C(=O)N1CCCC1)C1CCN(c2nccc3c(-c4ncc(Cl)cc4Cl)cccc23)CC1  response (D(2) dopamine receptor, short isoform (DRD2, Homo sapiens, UniProt P14416); functional response, agonist; 10 µM): 30%
Cc1sc2c(c1C)C(c1ccc(Cl)cc1)=NC(CC(=O)OC(C)(C)C)c1nnc(C)n1-2 (centres unmarked)  specific binding (DRD2; antagonist radioligand binding; 1 µM): 102%
Cc1cc(Nc2nc(C[C@@]3(C(=O)O)CCN(Cc4cccc(Cl)c4F)[C@H](C)C3)cc(C)c2F)[nH]n1  activation (DRD2; agonist; 10 µM): 1.11%
COc1ccc(F)cc1S(=O)(=O)Nc1cnc2c(c1)C(=O)NCCO2  inhibition (DRD2; radioligand binding, inhibitor; 10 µM): 3%
Cc1ccc2c(n1)c(-c1cccc(S(C)(=O)=O)c1)c(C)n2C/C(F)=C/CN  inhibition (DRD2; ligand displacement, radioligand; 10 µM): 5%
Cc1cc(-c2ccc3ccccc3c2)nnc1NCCN1CCN(C)CC1  antagonist activity (DRD2; antagonist; concentration not given): negative
